Experimental data collected from several papers.
Lines come from different studies, so protocols differ. “And” joins repeats or separate records; there may be more than shown. Numbers after ± are the reported error.

SMILES = CCOc1ccccc1-n1c(CN2CCNCC2)nc2ccccc2c1=O; system = C57BL/6 mouse, male, plasma; setting = oral, 6 mg/kg; quantity = apparent clearance CL/F; value = 129 mL/min/kg
SMILES = CN1Cc2cc(Cl)ccc2-n2c(nnc2C2CCN(c3cccc([18F])n3)CC2)C1; system = C57BL/6 mouse male, urinary bladder; setting = intravenous, 3.7 MBq, 15 min; quantity = tissue uptake; value = 4.92 ± 0.73 %ID/g
SMILES = COc1cnc2cccc(N3CCc4c(cc(Cn5ccnc5)cc4-c4cn(C)nc4C(F)(F)F)C3=O)c2c1; system = BALB/c nude mice, MV4-11 xenograft; setting = intraperitoneal, 50 mg/kg, day 28; quantity = body weight; value = 21.6 g and 23.4 g and 22.3 g and 25.4 g and 21.8 g and 23.6 g
SMILES = C=Cc1c(C)c2cc3nc(c(CC(=O)[O-])c4[n-]c(cc5nc(cc1[n-]2)C(C)=C5CC)c(C)c4C(=O)[O-])C(CCC(=O)[O-])C3C.[Cu+2].[Na+].[Na+].[Na+] (centres unmarked); system = Wistar rat, female; setting = oral, 250 mg/kg daily, 28 days; quantity = serum albumin; value = 1.03 ± 0.15 g/dL
SMILES = CC(C)(CCCC/C=C/CCCCCC(C)(C)C(=O)O)C(=O)O; system = beagle dog, both sexes; setting = oral, dose not given, 1 h; quantity = plasma concentration; value = 27500 ng/mL
SMILES = CC(C)=CCC/C(C)=C/CCn1cc(CC(C)(P(=O)(O)O)P(=O)(O)O)nn1; test = qRT-PCR, refers to: Slco1b2 and Cyp3a11; system = CD-1 mice, liver; setting = intravenous, 0.3 mg/kg; scale = reference: control; quantity = mRNA level; value = increased
SMILES = CCN(C(=O)[C@H](C)N(Cc1ccccc1)C(C)=O)[C@@H](C)C(=O)N(Cc1c[nH]c2cc(Cl)ccc12)[C@@H](C)C(=O)N(CC)[C@@H](C)C(=O)N(CCC(C)(C)C)[C@@H](C)C(N)=O; system = PAMPA; setting = 10 µM, 4 h, pH 7.4; quantity = Papp; value = 0.34 ×10⁻⁶ cm/s
SMILES = CC[C@H](C)[C@H](NC(=O)[C@H](CCCNC(=N)N)NC(=O)[C@H](CCCCN)NC(=O)[C@H](Cc1ccc(O)cc1)NC(=O)[C@H](CC(=O)O)NC(=O)[C@H](C)NC(=O)CNC(=O)CCOCCOCCOCCNC(=O)CN1CCN(CC(=O)O)CCN(CC(=O)O)CCN(CC(=O)O)CC1)C(=O)N[C@H](C(=O)N[C@H](C(=O)N[C@@H](CCCCN)C(=O)N[C@H](C(=O)N[C@@H](CC(N)=O)C(N)=O)C(C)C)C(C)C)[C@@H](C)O [copper-64 labelled]; test = ex vivo gamma counting; system = C57BL/6J male mice, B16-F10 tumour, pancreas; setting = intravenous, 1.85 MBq, 100 min; quantity = tissue uptake; value = 0.534 ± 0.119 %ID/g
SMILES = CC[C@H](C)[C@@H]1NC(=O)[C@H](Cc2ccc(O)cc2)NC(=O)[C@@H](N)CSCSC[C@@H](C(=O)N2CCC[C@H]2C(=O)N[C@@H](CC(C)C)C(=O)NCC(N)=O)NC(=O)[C@H](CC(N)=O)NC(=O)[C@H](CCC(N)=O)NC1=O; system = phosphate buffer; setting = 0.1 mg/mL, pH 4.5, 40 °C; quantity = half-life; value = 133 days
SMILES = CCc1nn(C)c2nc(-c3ccc(C(=O)O)cc3)nc(NCc3ccccc3)c12; system = male CD-1 mouse, plasma; setting = intravenous, 1 mg/kg, 4.8 min; quantity = concentration; value = 5320 ng/mL
SMILES = CCCCC[C@@H]1NC(=O)[C@@H](C)N(C)C(=O)[C@H](CCCCC)N(C)C(=O)[C@@H](C)N(C)C(=O)[C@H](CCCCC)N(C)C(=O)[C@@H](C)N(C)C(=O)[C@H](CCCCC)NC(=O)[C@@H](C)N(C)C1=O; test = PAMPA; setting = 500 µM, pH 7.4; quantity = log Papp; value = 4.79 ×10⁻⁶ cm/s
SMILES = CC[C@H](C)[C@H](NC(=O)[C@H](CCCCN)NC(=O)CNC(=O)[C@H](CC(C)C)NC(=O)[C@H](Cc1ccccc1)NC(=O)[C@H](CCCCN)NC(=O)[C@H](CO)NC(=O)[C@H](Cc1ccccc1)NC(=O)[C@H](Cc1c[nH]c2ccccc12)NC(=O)[C@H](CCC(N)=O)NC(=O)[C@@H](NC(=O)[C@H](Cc1ccccc1)NC(=O)CCCCCNC(=O)CN1CCN(CC(=O)O)CCN(CC(=O)O)CCN(CC(=O)O)CC1)C(C)C)C(=O)N[C@@H](CCC(=O)O)C(=O)N1CCC[C@H]1C(=O)N[C@@H](CC(=O)O)C(=O)N[C@H](C(=O)N[C@@H](CO)C(=O)N[C@@H](CCC(N)=O)C(=O)N[C@H](C(=O)N[C@@H](CCC(N)=O)C(=O)N[C@@H](CC(=O)O)C(=O)N1CCC[C@H]1C(=O)N[C@@H](CC(N)=O)C(=O)N[C@@H](CC(=O)O)C(=O)N[C@@H](CCC(N)=O)C(=O)N[C@@H](Cc1ccc(O)cc1)C(=O)N[C@@H](CCC(=O)O)C(=O)N1CCC[C@H]1C(=O)N[C@@H](Cc1ccccc1)C(=O)O)C(C)C)C(C)C [copper-64 labelled]; test = dynamic PET; system = mouse, CT26 tumour, untreated, tumour; setting = intravenous, 100 µCi/mouse, 3100 s; quantity = SUVmean; value = 1.46 SUV
SMILES = CC(C)[C@H](NC(=O)[C@@H](NC(=O)[C@H](CCCNC(=N)N)NC(=O)[C@H](CCCNC(=N)N)NC(=O)[C@H](CCCNC(=N)N)NC(=O)[C@H](CCC(N)=O)NC(=O)[C@H](CCCNC(=N)N)NC(=O)[C@H](CCCNC(=N)N)NC(=O)[C@H](CCCCN)NC(=O)[C@H](CCCCN)NC(=O)[C@H](CCCNC(=N)N)NC(=O)CN)[C@@H](C)O)C(=O)N[C@H](C(=O)N[C@@H](CO)C(=O)N1CCC[C@H]1C(=O)O)[C@@H](C)O; system = ICR mice, female, spleen; setting = intranasal, 10 mg/kg daily, 4 weeks; quantity = organ weight; value = 0.098 ± 0.02 g
SMILES = O=C1NC2(CC2)COc2ncc(F)cc2[C@H]2COCCN2c2ccn3ncc1c3n2; system = Sprague-Dawley rat, female, thymus; setting = oral, 10 mg/kg/day, 4 weeks, end of treatment; quantity = organ-to-brain weight ratio; value = 31.1 ± 7.65%
SMILES = N#[11C]c1ccc(-c2csc(NN=C3CCCC3)n2)cc1; system = C57BL/6 mice, male, muscle; setting = intravenous, 3 MBq, 1 min; quantity = radioactivity uptake; value = 2.28 ± 0.69 %ID/g
SMILES = CSCC[C@H](NC(=O)CNC(=O)[C@H](CCCCN)NC(=O)[C@H](CC(C)C)NC(=O)[C@@H]1CCCN1C(=O)[C@H](CO)NC(=O)[C@H](Cc1c[nH]cn1)NC(=O)[C@H](Cc1c[nH]c2ccccc12)NC(=O)[C@H](CCCNC(=N)N)NC(=O)[C@H](CC(C)C)NC(=O)[C@H](CCCNC(=N)N)NC(=O)[C@H](Cc1c[nH]c2ccccc12)NC(=O)[C@H](CS)NC(=O)CCCCCNC(=O)CN1CCN(CC(=O)O)CCN(CC(=O)O)CCN(CC(=O)O)CC1)C(=O)O [copper-64 labelled]; system = C57BL/6J mice, B16-F10 tumour, blood; setting = intravenous, 1.85 MBq, 30 h; quantity = tissue uptake; value = 0.96 %ID/g
SMILES = Cc1ccccc1-c1ccc(-c2nc(-c3ccc(CN(C)CCCC(=O)O)c([18F])c3)no2)cc1C(F)(F)F; system = rat, blood; setting = 5 min; quantity = tracer uptake; value = 0.2 %ID/g
SMILES = C(#Cc1cncc(OC[C@@H]2CCN2)c1)c1ccccc1; system = male Sprague-Dawley rat, plasma; setting = oral, 75 mg/kg, 15 min; quantity = concentration; value = 310 ng/mL
SMILES = CSCC[C@H](N)C(=O)N[C@@H](C)C(=O)N[C@@H](CCCNC(=N)N)C(=O)N[C@@H](CCCNC(=N)N)C(=O)N[C@@H](CC(=O)O)C(=O)N[C@@H](CCCCN)C(=O)N[C@H](C(=O)N[C@@H](CC(=O)O)C(=O)N[C@@H](Cc1ccccc1)C(=O)N[C@@H](C)C(=O)N[C@@H](CCCNC(=N)N)C(=O)N[C@@H](CCCNC(=N)N)C(=O)N[C@@H](CCCNC(=N)N)C(=O)N[C@@H](CCCNC(=N)N)C(=O)NCCCCCC(=O)NCCCCC(NC(=O)CCCCCNC(=O)[C@H](CCCNC(=N)N)NC(=O)[C@H](CCCNC(=N)N)NC(=O)[C@H](CCCNC(=N)N)NC(=O)[C@H](CCCNC(=N)N)NC(=O)[C@H](C)NC(=O)[C@H](Cc1ccccc1)NC(=O)[C@H](CC(=O)O)NC(=O)[C@@H](NC(=O)[C@H](CCCCN)NC(=O)[C@H](CC(=O)O)NC(=O)[C@H](CCCNC(=N)N)NC(=O)[C@H](CCCNC(=N)N)NC(=O)[C@H](C)NC(=O)[C@@H](N)CCSC)[C@@H](C)O)C(=O)NCCCCC(NC(=O)C(CCCCNC(=O)CCCCCNC(=O)[C@H](CCCNC(=N)N)NC(=O)[C@H](CCCNC(=N)N)NC(=O)[C@H](CCCNC(=N)N)NC(=O)[C@H](CCCNC(=N)N)NC(=O)[C@H](C)NC(=O)[C@H](Cc1ccccc1)NC(=O)[C@H](CC(=O)O)NC(=O)[C@@H](NC(=O)[C@H](CCCCN)NC(=O)[C@H](CC(=O)O)NC(=O)[C@H](CCCNC(=N)N)NC(=O)[C@H](CCCNC(=N)N)NC(=O)[C@H](C)NC(=O)[C@@H](N)CCSC)[C@@H](C)O)NC(=O)CCCCCNC(=O)[C@H](CCCNC(=N)N)NC(=O)[C@H](CCCNC(=N)N)NC(=O)[C@H](CCCNC(=N)N)NC(=O)[C@H](CCCNC(=N)N)NC(=O)[C@H](C)NC(=O)[C@H](Cc1ccccc1)NC(=O)[C@H](CC(=O)O)NC(=O)[C@@H](NC(=O)[C@H](CCCCN)NC(=O)[C@H](CC(=O)O)NC(=O)[C@H](CCCNC(=N)N)NC(=O)[C@H](CCCNC(=N)N)NC(=O)[C@H](C)NC(=O)[C@@H](N)CCSC)[C@@H](C)O)C(N)=O)[C@@H](C)O (some centres unmarked); system = C57BL/6 mouse female, spine; setting = dose not given, 3 h; scale = reference: total; quantity = mean tissue distribution; value = 7.17%
SMILES = CC(CCC(=O)NCC(=O)O)C1CCC2C3CCC4CC(OC5OC(C(=O)O)C(O)C(O)C5O)CCC4(C)C3CC(O)C12C (centres unmarked); system = men, C/C genotype, plasma; setting = dose not given, geometric mean; quantity = plasma concentration; value = 490 ng/mL

Repeated from above:
SMILES = CC[C@H](C)[C@@H]1NC(=O)[C@H](Cc2ccc(O)cc2)NC(=O)[C@@H](N)CSCSC[C@@H](C(=O)N2CCC[C@H]2C(=O)N[C@@H](CC(C)C)C(=O)NCC(N)=O)NC(=O)[C@H](CC(N)=O)NC(=O)[C@H](CCC(N)=O)NC1=O; system = phosphate buffer; setting = 0.1 mg/mL, pH 4.5, 40 °C; quantity = half-life; value = 133 days
